Experimental data from different studies.
Protocols differ between the studies behind these lines. Values joined by “and” are separate records of one study, mostly repeats; a detail may differ. Numbers after ± are the reported error.

SMILES | assay | system | conditions | how to read | endpoint | result
O=S(=O)(Nc1ccccc1)c1ccc(NC(=S)Nc2ccccc2)cc1 | item: ALKP | male mouse, blood | oral, 80 mg/kg daily, 14 days |  | serum enzyme activity | 138 U/L
O=C1Nc2cc3[nH]nc(-c4ccncc4)c3cc2CN1Cc1ccccc1 | CTCAE v4.03 | advanced solid tumour patients | intravenous, 6.4 mg/kg |  | patients with ≥1 TEAE | 89%
COc1cc2c(Oc3ccc4[nH]c(C)cc4c3F)ccnc2cc1OCC1(N)CC1 |  | paediatric recurrent refractory sarcoma | 8 mg |  | Neutropenia incidence | 0%
Cn1ncc(-c2nc(N[C@H]3CC[C@H](N)CC3)ncc2Cl)c1CC1CC1 |  | human patients, plasma | oral, 1 mg, day 1 |  | AUC | 36.1 ng·h/mL
CC(C)[C@@H]1NC(=O)CNC(=O)[C@H](CC(N)=O)NC(=O)[C@H](CCCNC(=N)N)NC(=O)[C@H](Cc2ccc(O)cc2)NC(=O)[C@H](C(C)C)NC(=O)[C@@H](NC(=O)[C@@H](NC(=O)[C@H](CC(N)=O)NC(=O)[C@H](Cc2c[nH]c3ccccc23)NC(=O)[C@H](C)NC(=O)[C@H](Cc2ccccc2)NC(=O)CN)C(C)C)CSSC[C@@H](C(=O)N[C@@H](Cc2cnc[nH]2)C(=O)N[C@@H](CCCNC(=N)N)C(=O)N[C@@H](CCCNC(=N)N)C(=O)N[C@@H](C)C(=O)N[C@@H](CC(N)=O)C(N)=O)NC(=O)[C@H](C(C)C)NC(=O)[C@H](CCCNC(=N)N)NC1=O |  | ICR mice, blood | intraperitoneal, 5 mg/kg, day 5 |  | monocytes | 2.65 ± 0.27%
C[C@]1(CO)Cc2ncn(-c3ccc(C#N)c(Cl)c3)c2C(=O)O1 |  | human | 80 mg single dose |  | subjects with any TEAE | 28.6%
O=C(Nc1ccccc1)C1CCN(C(=O)Oc2cccnc2)CC1 |  | healthy women | oral, 100 mg, 9 days |  | adverse event Nasopharyngitis | 0%
N=C(N)NCCC[C@@H](NC(=O)[C@@H](N)Cc1ccccc1)C(=O)N[C@@H](Cc1ccccc1)C(=O)N[C@@H](CCCCN)C(N)=O |  | early Huntington's disease patients, urine | subcutaneous, 15 mg, 5.833 h, mean |  | fraction of dose excreted in urine | 33.7%
OC[C@H]1OC(O)[C@H]([18F])[C@@H](O)[C@@H]1O (some centres unmarked) | PET/CT, bi-exponential fit | Sprague-Dawley rat, nasal cavity | intranasal | relative to: dose | nasal clearance amplitude A | 16.3%
CCNCCCNC/C=C\CNCCCNCC |  | human, advanced solid tumours | intravenous, dose not given | relative to: patients | drug-related TEAE, blood disorders | 19.6%
CC(C)(C(=O)NC1C2CC3CC1CC(C(N)=O)(C3)C2)N1CCN(c2ccc(C(F)(F)F)cn2)CC1 (centres unmarked) |  | human, plasma | 50 mg once daily, 5 days, median |  | dose-normalised free Cmax | 0.118 (ng/mL)/mg
Cc1cc(C)c(CNC(=O)c2cc(Cl)c3c(c2C)O[C@@](C)([C@H]2CC[C@H](N(C)C)CC2)O3)c(=O)[nH]1 |  | human, relapsed/refractory NHL | treatment-related TEAEs, grade 5 |  | Coagulopathy incidence | 0%
CC[C@H](C)[C@H](NC(=O)[C@H](CCCCN)NC(=O)[C@H](CCC(=O)O)NC(=O)[C@H](CCCCN)NC(=O)[C@H](CO)NC(=O)[C@H](CCCCN)NC(=O)[C@H](CCCNC(=N)N)NC(=O)[C@H](Cc1ccccc1)NC(=O)[C@H](Cc1ccccc1)NC(=O)[C@H](CC(=O)O)NC(=O)CNC(=O)[C@H](CC(C)C)NC(=O)[C@@H](N)CC(C)C)C(=O)NCC(=O)N[C@@H](CCCCN)C(=O)N[C@@H](CCC(=O)O)C(=O)N[C@@H](Cc1ccccc1)C(=O)N[C@@H](CCCCN)C(=O)N[C@@H](CCCNC(=N)N)C(=O)N[C@H](C(=O)N[C@H](C(=O)N[C@@H](CCC(N)=O)C(=O)N[C@@H](CCCNC(=N)N)C(=O)N[C@H](C(=O)N[C@@H](CCCCN)C(=O)N[C@@H](CC(=O)O)C(=O)N[C@@H](Cc1ccccc1)C(=O)N[C@@H](CC(C)C)C(=O)N[C@@H](CCCNC(=N)N)C(=O)N[C@@H](CC(N)=O)C(=O)N[C@@H](CC(C)C)C(=O)N[C@H](C(=O)N1CCC[C@H]1C(=O)N[C@@H](CCCNC(=N)N)C(=O)N[C@H](C(=O)N[C@@H](CCC(=O)O)C(=O)N[C@@H](CO)C(=O)O)[C@@H](C)O)C(C)C)[C@@H](C)CC)C(C)C)[C@@H](C)CC | LC-MS | buffer with human neutrophil elastase | 40 µM, 20 min, pH 7.5, 37 °C | relative to: 0 h | remaining intact peptide | 32.2% and 24.6% and 25.2%
COc1ccnc(C(=O)N[C@H]2COC(=O)[C@H](Cc3ccccc3)[C@@H](OC(=O)C(C)C)[C@H](C)OC2=O)c1OCOC(=O)C(C)C |  | Staffordshire loam sediment, aerobic dark | 20 °C |  | DT50 water | 0.12 days
CN1CC[C@@H](c2c(O)cc(O)c3c(=O)cc(-c4ccc(C(F)(F)F)cc4Cl)oc23)[C@@H]1CO | item: Chills | AML | oral, 200 mg, intermittent dosing |  | patients with adverse event | 20%
CO[C@H]1C[C@@H]2CC[C@@H](C)[C@@](O)(O2)C(=O)C(=O)N2CCCC[C@H]2C(=O)O[C@H]([C@H](C)C[C@@H]2CC[C@@H](OC(=O)NCCOCCOCCOCCOCCOCCOCCOCCOCCC(=O)N3CCc4cc(Cn5nc(-c6ccc7oc(N)nc7c6)c6c(N)ncnc65)ccc4C3)[C@H](OC)C2)C[C@@H](O)[C@H](C)/C=C(\C)[C@@H](O)[C@@H](OC)C(=O)[C@H](C)C[C@H](C)/C=C/C=C/C=C/1C | dose-escalation trial | patients with advanced solid tumours | intravenous, all doses weekly, any grade |  | AEs leading to discontinuation | 12.3%
CCc1ccc(CC/C=C/c2ccc3c(c2)C(=O)CC3)cc1 |  | Sprague-Dawley rat, female | oral, 120 mg/kg/day, 14 days |  | Urea | 7.07 mM
Clc1ccc(-c2ccccc2)cc1 |  | rat Sprague-Dawley female, serum | inhalation, 35 µg/rat, 24 h |  | serum Phosphorous | 8 ± 0.5 mg/dL
N.N.O=C([O-])C1(C(=O)[O-])CCC1.[Pt+2] | item: non-protein-bound platinum | human, plasma ultrafiltrate | dose not given, from 0, median, Bayesian estimate |  | AUC to infinity | 1.7 mg·min/mL
C[C@@H](O)[C@@H]1NC(=O)[C@H](CCCCN)NC(=O)[C@@H](Cc2c[nH]c3ccccc23)NC(=O)[C@H](Cc2ccccc2)NC(=O)[C@@H](NC(=O)[C@H](N)Cc2ccccc2)CSSC[C@@H](C(=O)N[C@H](CO)[C@@H](C)O)NC1=O | population PK model | healthy and acromegaly subjects, plasma | subcutaneous, typical 75 kg subject |  | clearance | 160 mL/min
Brc1ccc(Oc2cc(Br)c(Br)cc2Br)c(Br)c1 |  | whole cow milk | 20 nM nominal |  | dose fraction in milk fat | 81.4%
CC[C@H](C)[C@H](NC(=O)[C@H](CC(C)C)NC(=O)[C@H](Cc1c[nH]c2ccccc12)NC(=O)[C@H](CCC(N)=O)NC(=O)[C@@H](NC(=O)[C@H](Cc1ccccc1)NC(=O)[C@H](C)NC(=O)[C@H](CCCCNC(=O)COCCOCCNC(=O)COCCOCCNC(=O)CC[C@H](NC(=O)CCCCCCCCCCCCCCCCCCC(=O)O)C(=O)O)NC(=O)[C@H](CCC(N)=O)NC(=O)[C@H](C)NC(=O)[C@@H](NC(=O)[C@H](CCCCN)NC(=O)[C@H](CC(=O)O)NC(=O)[C@H](CC(C)C)NC(=O)C(C)(C)NC(=O)[C@@H](NC(=O)[C@H](CO)NC(=O)[C@H](Cc1ccc(O)cc1)NC(=O)[C@H](CC(=O)O)NC(=O)[C@H](CO)NC(=O)[C@@H](NC(=O)[C@H](Cc1ccccc1)NC(=O)[C@@H](NC(=O)CNC(=O)[C@H](CCC(=O)O)NC(=O)C(C)(C)NC(=O)[C@@H](N)Cc1ccc(O)cc1)[C@@H](C)O)[C@@H](C)O)[C@@H](C)CC)[C@@H](C)CC)C(C)C)C(=O)N[C@@H](C)C(=O)NCC(=O)NCC(=O)N1CCC[C@H]1C(=O)N[C@@H](CO)C(=O)N[C@@H](CO)C(=O)NCC(=O)N[C@@H](C)C(=O)N1CCC[C@H]1C(=O)N1CCC[C@H]1C(=O)N1CCC[C@H]1C(=O)N[C@@H](CO)C(N)=O |  | human, plasma | 5 mg, week 8 |  | median tmax | 48 h
N[C@@H]1c2ccccc2OC12CCN(c1cnc3c(N4CCCc5ncccc54)n[nH]c3n1)CC2 | item: Constipation | human advanced or metastatic solid tumours | oral, 60 mg once daily, phase Ia pooled cohort |  | patients with treatment-emergent adverse event | 28%
C[C@@H]1NC(=O)[C@H](CCCCNC(=O)CO/N=C/C(=O)NCCCC[C@@H]2NC(=O)[C@@H](Cc3ccccc3)NC(=O)[C@H](CC(=O)O)NC(=O)CNC(=O)[C@H](CCCNC(=N)N)NC2=O)NC(=O)CNC(=O)[C@@H]2CCCN2C(=O)[C@H](CCCCNC(=O)CO/N=C/C(=O)NCCCC[C@@H]2NC(=O)[C@@H](Cc3ccccc3)NC(=O)[C@H](CC(=O)O)NC(=O)CNC(=O)[C@H](CCCNC(=N)N)NC2=O)NC(=O)[C@H](CCCCNC(=O)CCNC(=O)CCNC(=O)CCNC(=O)[C@H](CCCCN)NC(=O)[C@H](Cc2ccccc2)NC(=O)CNC(=O)CN2CCCNCCNCCCNCC2)NC(=O)[C@H](CCCCNC(=O)CO/N=C/C(=O)NCCCC[C@@H]2NC(=O)[C@@H](Cc3ccccc3)NC(=O)[C@H](CC(=O)O)NC(=O)CNC(=O)[C@H](CCCNC(=N)N)NC2=O)NC(=O)CNC(=O)[C@@H]2CCCN2C(=O)[C@H](CCCCNC(=O)CO/N=C/C(=O)NCCCC[C@@H]2NC(=O)[C@@H](Cc3ccccc3)NC(=O)[C@H](CC(=O)O)NC(=O)CNC(=O)[C@H](CCCNC(=N)N)NC2=O)NC1=O [copper-64 labelled] |  | normal mice, heart | intravenous, 0.74 MBq, 24 h post-injection |  | tissue uptake | 1.13 ± 0.13 %ID/g
Cc1nc(-c2cnc(NC(C)C)n(C)c2=O)ccc1Oc1ccnc(-c2cnn(C)c2)c1 |  | humans, solid tumours | oral, dose not given, grade 3/4, all cohorts |  | abdominal pain TEAE | 1 patients
CC(C)C(=O)OC[C@H]1O[C@@H](n2ccc(NO)nc2=O)[C@H](O)[C@@H]1O |  | rat maternal placenta dialysate | 250 ng/mL, high concentration, three cycles, together with: NHC 1000 ng/mL |  | freeze-thaw stability | 98.94 ± 0.91%

For quick reference, copied from above:
SMILES | assay | system | conditions | how to read | endpoint | result
C[C@@H]1NC(=O)[C@H](CCCCNC(=O)CO/N=C/C(=O)NCCCC[C@@H]2NC(=O)[C@@H](Cc3ccccc3)NC(=O)[C@H](CC(=O)O)NC(=O)CNC(=O)[C@H](CCCNC(=N)N)NC2=O)NC(=O)CNC(=O)[C@@H]2CCCN2C(=O)[C@H](CCCCNC(=O)CO/N=C/C(=O)NCCCC[C@@H]2NC(=O)[C@@H](Cc3ccccc3)NC(=O)[C@H](CC(=O)O)NC(=O)CNC(=O)[C@H](CCCNC(=N)N)NC2=O)NC(=O)[C@H](CCCCNC(=O)CCNC(=O)CCNC(=O)CCNC(=O)[C@H](CCCCN)NC(=O)[C@H](Cc2ccccc2)NC(=O)CNC(=O)CN2CCCNCCNCCCNCC2)NC(=O)[C@H](CCCCNC(=O)CO/N=C/C(=O)NCCCC[C@@H]2NC(=O)[C@@H](Cc3ccccc3)NC(=O)[C@H](CC(=O)O)NC(=O)CNC(=O)[C@H](CCCNC(=N)N)NC2=O)NC(=O)CNC(=O)[C@@H]2CCCN2C(=O)[C@H](CCCCNC(=O)CO/N=C/C(=O)NCCCC[C@@H]2NC(=O)[C@@H](Cc3ccccc3)NC(=O)[C@H](CC(=O)O)NC(=O)CNC(=O)[C@H](CCCNC(=N)N)NC2=O)NC1=O [copper-64 labelled] |  | normal mice, heart | intravenous, 0.74 MBq, 24 h post-injection |  | tissue uptake | 1.13 ± 0.13 %ID/g
